Assay results gathered from unrelated publications.
Compare with care: the assays were run in different laboratories. ± marks the error that the study gave.

CC(C)C[C@@H]1NC(=O)[C@H](CC(=O)O)NC(=O)CNC(=O)[C@H](CCCNC(=N)N)NC(=O)[C@H](Cc2ccccc2)NC(=O)[C@H](CCCCNC(=O)CCc2cn(CCCNC(=O)CCC(C(=O)O)N3CCN(CC(=O)O)CCN(CC(=O)O)CCN(CC(=O)O)CC3)nn2)N(C)C(=O)[C@H]2CCCN2C(=O)[C@H](Cc2ccccc2)NC(=O)[C@H](C)NC1=O (stereo partly drawn)
tissue-to-tissue ratio (female CB17 SCID mice, tumour and pancreas; intravenous, dose not given, 90 min, 177Lu-labelled; relative to: tumour over pancreas): 15.5 ± 2.6

C[C@@H](O)[C@@H]1NC(=O)[C@@H](NC(=O)CCOCCOCCOCCOCCNC(=O)c2ccc(NN)nc2)CSSC[C@@H](C(=O)O)NC(=O)[C@H](Cc2c[nH]cn2)NC(=O)[C@H](CO)NC(=O)[C@H](Cc2ccccc2)NC(=O)[C@@H]2CCCN2C(=O)[C@H](CO)NC(=O)[C@@H]2CCCN2C1=O [technetium-99m labelled]
tissue uptake (mouse HCT-116 xenograft, heart; intravenous, 37 MBq, postmortem after imaging): 0.05 ± 0.01 %ID/g

CCCCCCCCCCCCCCC(=O)N[C@@H](CCCCNC(=O)CN1CCN(CC(=O)O)CCN(CC(=O)O)CCN(CC(=O)O)CC1)C(=O)N[C@@H](CCC(=O)NCCCC[C@@H]1NC(=O)[C@@H](Cc2ccccc2)NC(=O)[C@H](CC(=O)O)NC(=O)CNC(=O)[C@H](CCCNC(=N)N)NC1=O)C(=O)NCCCC[C@@H]1NC(=O)[C@@H](Cc2ccccc2)NC(=O)[C@H](CC(=O)O)NC(=O)CNC(=O)[C@H](CCCNC(=N)N)NC1=O [indium-111 labelled]
tumour uptake (female BALB/c nude mice, U-87 MG xenograft, tumour; intravenous, 24 h): 5.12 ± 0.99 %ID/g

CCCCCCCCCCCCCCCCCCCCCCCCCC(=O)O[C@H](CCCCCCCCCCCCCC)[C@@H](O)[C@H](CO[C@H]1O[C@H](CO)[C@H](O)[C@H](O)[C@H]1O)NC(=O)OCc1ccc(NC(=O)[C@H](CCCNC(N)=O)NC(=O)[C@@H](NC(=O)CCCCCn2cc(CCC(=O)N[C@@H](Cc3ccccc3)C(=O)N[C@@H](Cc3ccccc3)C(=O)N[C@@H](CCCNC(=N)N)C(=O)N[C@@H](CCCCN)C(=O)N[C@@H](CO)C(=O)N[C@H](C(=O)N[C@H](C(=O)N[C@@H](CC(N)=O)C(=O)N[C@@H](Cc3ccccc3)C(=O)N[C@@H](CCC(=O)O)C(=O)N[C@@H](CCCCN)C(=O)N[C@@H](CC(C)C)C(=O)O)[C@@H](C)CC)[C@@H](C)CC)nn2)C(C)C)cc1
α-GalCer released (HPLC-ESI-MS/MS; aqueous ammonium acetate; 10 µg/mL, eight days, pH 5.0, 20 °C): < 0.05%

N=C(N)NCCC[C@@H]1NC(=O)[C@H](CCCCNC(=O)CCC(NC(=S)Nc2ccc(CC3CN(CC(=O)O)CCN(CC(=O)O)CCN(CC(=O)O)CCN3CC(=O)O)cc2)C(=O)NCCCC[C@@H]2NC(=O)[C@@H](Cc3ccc(O)cc3)NC(=O)[C@H](CC(=O)O)NC(=O)CNC(=O)[C@H](CCCNC(=N)N)NC2=O)NC(=O)[C@@H](Cc2ccc(O)cc2)NC(=O)[C@H](CC(=O)O)NC(=O)CNC1=O (stereo partly drawn) [scandium-44 labelled]
tissue uptake (PET imaging ROI; female athymic nude mice, U-87 MG xenograft, kidney; intravenous, 2 h): 1.63 ± 0.47 %ID/g

CC(=O)N[C@@H](CC(C)C)C(=O)N[C@H](C(=O)N[C@@H](Cc1ccccc1)C(=O)N[C@]1(C)CCCCCC/C=C/CCC[C@@](C)(C(=O)N[C@@H](C)C(=O)N[C@@H](C)C(=O)N[C@@H](C)C(=O)N[C@@H](C)C(=O)N[C@@H](C)C(=O)N[C@H](C)C(N)=O)NC(=O)[C@H](CC(C)C)NC(=O)[C@H](CCCCNC(=O)CCNC(=O)C[C@@H]2N=C(c3ccc(Cl)cc3)c3c(sc(C)c3C)-n3c(C)nnc32)NC(=O)[C@H](C)NC(=O)[C@H](Cc2c[nH]c3ccccc23)NC(=O)[C@H](Cc2ccc(O)cc2)NC(=O)[C@H](C)NC1=O)[C@@H](C)O
buffer chamber concentration (equilibrium dialysis; mouse plasma; 2 µM, 6 h): 24.9 nM

CC(C)C[C@@H]1NC(=O)[C@H](CC(=O)O)NC(=O)CNC(=O)[C@H](CCCNC(=N)N)NC(=O)[C@H](Cc2ccccc2)NC(=O)[C@H](CCCCNC(=O)CCc2cn(CCCNC(=O)CN3CCN(CC(=O)O)CCN(CC(=O)O)CCN(CC(=O)O)CC3)nn2)N(C)C(=O)[C@H]2CCCN2C(=O)[C@H](Cc2ccccc2)NC(=O)[C@H](C)NC1=O
tissue-to-tissue ratio (female CB17 SCID mice, tumour and spleen; intravenous, dose not given, 90 min, 177Lu-labelled; relative to: tumour over spleen): 5.3 ± 5.3

CC(C)C[C@H](NC(=O)[C@@H](N)Cc1ccccc1)C(=O)N[C@@H](C)C(=O)N[C@@H](CS)C(=O)N1CCC[C@H]1C(=O)N[C@@H](CCC(=O)O)C(=O)N[C@H](C(=O)N[C@@H](Cc1c[nH]cn1)C(=O)N[C@@H](CS)C(=O)N[C@H](C(=O)NCC(=O)N[C@@H](CO)C(=O)N[C@@H](Cc1c[nH]c2ccccc12)C(=O)N[C@@H](CCCCNC(=O)CN1CCN(CC(=O)O)CCN(CC(=O)O)CCN(CC(=O)O)CC1)C(N)=O)[C@@H](C)O)[C@@H](C)O [gallium-68 labelled]
tumour uptake (PET/CT; C57BL/6J mice, B16-F10 tumour, tumour; intravenous, 3.7 MBq, 1 h): 2.07 ± 0.61 %ID/g

Cc1cc(O)cc(C)c1C[C@H](N)C(=O)N[C@H](CCCNC(=N)N)C(=O)N[C@@H](Cc1ccccc1)C(=O)N[C@@H](CCCCNC(=O)CN1CCN(CC(=O)O)CCN(CC(=O)O)CCN(CC(=O)O)CC1)C(N)=O [indium-111 labelled]
logD (pH 7.4): -4.26 ± 0.15

Cc1ccnc(-c2cc(C(=O)NCCCCCC(=O)N[C@@H](CCCNC(=N)N)C(=O)N[C@@H](CCCNC(=N)N)C(=O)N[C@@H](Cc3c[nH]c4ccccc34)C(=O)N[C@@H](Cc3c[nH]c4ccccc34)C(=O)N[C@@H](CCCNC(=N)N)C(=O)N[C@@H](Cc3c[nH]c4ccccc34)C(=O)N[C@@H](Cc3c[nH]c4ccccc34)C(=O)N[C@@H](CCCNC(=N)N)C(=O)N[C@@H](CCCNC(=N)N)C(N)=O)ccn2)c1 (stereo in doubt)
stability in solution (DMSO, PBS, supplemented RPMI; 25 µM, 7 d, 37 °C): stable

CC[C@H](C)[C@@H]([C@@H](CC(=O)N1CCC[C@H]1[C@H](OC)[C@@H](C)C(=O)N[C@H](C)[C@@H](O)c1ccccc1)OC)N(C)C(=O)[C@@H](NC(=O)[C@H](C(C)C)N(C)C(=O)OCc1ccc(NC(=O)[C@H](CCCNC(N)=O)NC(=O)[C@@H](NC(=O)CCCCCN2C(=O)CC(SC[C@H](NC(=O)[C@H](CC(=O)O)NC(=O)[C@H](Cc3ccc(O)cc3)NC(=O)[C@H](Cc3c[nH]c4ccccc34)NC(=O)[C@@H](N)CCCNC(=N)N)C(=O)O)C2=O)C(C)C)cc1)C(C)C (stereo partly drawn)
concentration (C57BL/6 mouse, healthy, liver; intraperitoneal, 2.5 mg/kg, 1 h): not detected

CCCC[C@H](NC(=O)CN1CCC(NC(=O)CN2CCN(CC(N)=O)CCN(CC(N)=O)CCN(CC(N)=O)CC2)CC1)C(=O)N[C@H]1CC(=O)NCCCC[C@@H](C(N)=O)NC(=O)[C@H](Cc2c[nH]c3ccccc23)NC(=O)[C@H](CCCNC(=N)N)NC(=O)[C@@H](Cc2ccccc2)NC(=O)[C@H](Cc2c[nH]cn2)NC1=O [lead-203 labelled]
tumour uptake improvement (SPECT/CT SUVmean; C57BL/6J mice B16-F10 tumour-bearing, tumour; 2 h; relative to: amide over thiourea analogue): 3.9 fold

Excerpt of the above:
CCCCCCCCCCCCCCCCCCCCCCCCCC(=O)O[C@H](CCCCCCCCCCCCCC)[C@@H](O)[C@H](CO[C@H]1O[C@H](CO)[C@H](O)[C@H](O)[C@H]1O)NC(=O)OCc1ccc(NC(=O)[C@H](CCCNC(N)=O)NC(=O)[C@@H](NC(=O)CCCCCn2cc(CCC(=O)N[C@@H](Cc3ccccc3)C(=O)N[C@@H](Cc3ccccc3)C(=O)N[C@@H](CCCNC(=N)N)C(=O)N[C@@H](CCCCN)C(=O)N[C@@H](CO)C(=O)N[C@H](C(=O)N[C@H](C(=O)N[C@@H](CC(N)=O)C(=O)N[C@@H](Cc3ccccc3)C(=O)N[C@@H](CCC(=O)O)C(=O)N[C@@H](CCCCN)C(=O)N[C@@H](CC(C)C)C(=O)O)[C@@H](C)CC)[C@@H](C)CC)nn2)C(C)C)cc1
α-GalCer released (HPLC-ESI-MS/MS; aqueous ammonium acetate; 10 µg/mL, eight days, pH 5.0, 20 °C): < 0.05%

N=C(N)NCCC[C@@H]1NC(=O)[C@H](CCCCNC(=O)CCC(NC(=S)Nc2ccc(CC3CN(CC(=O)O)CCN(CC(=O)O)CCN(CC(=O)O)CCN3CC(=O)O)cc2)C(=O)NCCCC[C@@H]2NC(=O)[C@@H](Cc3ccc(O)cc3)NC(=O)[C@H](CC(=O)O)NC(=O)CNC(=O)[C@H](CCCNC(=N)N)NC2=O)NC(=O)[C@@H](Cc2ccc(O)cc2)NC(=O)[C@H](CC(=O)O)NC(=O)CNC1=O (stereo partly drawn) [scandium-44 labelled]
tissue uptake (PET imaging ROI; female athymic nude mice, U-87 MG xenograft, kidney; intravenous, 2 h): 1.63 ± 0.47 %ID/g
